Measured values of several laboratories.
Protocols differ between the studies behind these lines. ± gives the spread as reported.
ACTA1: ACTA1, TMR label (Oryctolagus cuniculus, UniProt P68135)
T1: Psmc3ip/Mnd1 R64A/Y70A/Y71A (Mus musculus); chain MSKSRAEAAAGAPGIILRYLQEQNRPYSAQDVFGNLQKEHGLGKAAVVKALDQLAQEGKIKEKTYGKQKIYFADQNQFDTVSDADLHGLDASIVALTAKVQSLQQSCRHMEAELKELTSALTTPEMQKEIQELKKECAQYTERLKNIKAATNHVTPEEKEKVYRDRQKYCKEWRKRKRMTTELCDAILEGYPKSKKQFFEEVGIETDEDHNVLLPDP; chain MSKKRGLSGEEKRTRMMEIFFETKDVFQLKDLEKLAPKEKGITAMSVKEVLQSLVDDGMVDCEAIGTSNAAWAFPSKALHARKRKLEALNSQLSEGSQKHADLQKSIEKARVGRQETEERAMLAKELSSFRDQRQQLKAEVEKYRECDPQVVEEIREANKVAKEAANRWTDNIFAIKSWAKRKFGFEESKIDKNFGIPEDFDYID
T2: STAG2/RAD21 STAG2 80-1060, RAD21 281-420 (Homo sapiens); chain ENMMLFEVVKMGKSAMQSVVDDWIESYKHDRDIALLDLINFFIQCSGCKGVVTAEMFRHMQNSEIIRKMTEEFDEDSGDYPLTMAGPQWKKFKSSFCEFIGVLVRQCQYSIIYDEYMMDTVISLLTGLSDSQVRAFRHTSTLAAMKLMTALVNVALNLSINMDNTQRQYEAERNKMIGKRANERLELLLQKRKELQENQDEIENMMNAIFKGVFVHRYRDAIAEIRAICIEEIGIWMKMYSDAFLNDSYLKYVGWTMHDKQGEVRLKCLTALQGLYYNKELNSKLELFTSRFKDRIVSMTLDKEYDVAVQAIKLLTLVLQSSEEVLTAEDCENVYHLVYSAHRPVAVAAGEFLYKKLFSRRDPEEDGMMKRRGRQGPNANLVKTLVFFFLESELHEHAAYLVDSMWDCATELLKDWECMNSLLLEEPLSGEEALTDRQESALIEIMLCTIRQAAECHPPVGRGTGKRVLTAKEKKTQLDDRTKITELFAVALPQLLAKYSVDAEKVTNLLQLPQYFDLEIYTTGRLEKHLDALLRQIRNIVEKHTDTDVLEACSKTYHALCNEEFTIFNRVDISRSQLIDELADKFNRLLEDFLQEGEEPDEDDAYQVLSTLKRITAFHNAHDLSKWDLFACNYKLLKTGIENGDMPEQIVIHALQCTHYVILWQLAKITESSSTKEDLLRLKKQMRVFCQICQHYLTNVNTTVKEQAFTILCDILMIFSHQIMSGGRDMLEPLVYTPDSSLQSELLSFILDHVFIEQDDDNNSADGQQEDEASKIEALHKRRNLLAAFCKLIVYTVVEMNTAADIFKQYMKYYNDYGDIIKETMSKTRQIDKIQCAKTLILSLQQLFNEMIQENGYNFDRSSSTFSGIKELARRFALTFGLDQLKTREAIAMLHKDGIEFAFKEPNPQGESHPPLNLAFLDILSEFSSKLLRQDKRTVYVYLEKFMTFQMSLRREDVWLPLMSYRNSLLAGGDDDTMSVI; chain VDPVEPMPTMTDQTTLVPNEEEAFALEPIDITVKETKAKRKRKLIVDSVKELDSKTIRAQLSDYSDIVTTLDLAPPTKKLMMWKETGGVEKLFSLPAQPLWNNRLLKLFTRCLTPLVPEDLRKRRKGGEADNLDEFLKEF
B1: Fmnl3 555-954 (Mus musculus, UniProt Q6ZPF4); chain GLSAIRIKKPIKTKFRLPVFNWTALKPNQINGTVFSELDDEKILEDLDLDRFEELFKTKAQGPALDLICSKNKTAQKAASKVTLLEANRAKNLAITLRKAGRSAEEICRAIHTFDLQTLPVDFVECLMRFLPTEAEVKLLRQYERERQPLEELAAEDRFMLLFSKVERLTQRMAGMAFLGNFQDNLQMLTPQLNAIIAASASVKSSQKLKQMLEIILALGNYMNSSKRGAVYGFKLQSLDLLLDTKSTDRKMTLLHFIALTVKEKYPELANFWQELHFVEKAAAVSLENVLLDVKELGRGMELIRRECSIHDNSVLRNFLSTNEGKLDKLQRDAKTAEEAYNAVVRYFGESPKTTPPSVFFPVFVRFIRSYKEAEQENEARKKQEEVMREKQLAQEAKKL
B2: FBN1 147-489 (Homo sapiens, UniProt P35555); chain QPVCESGCLNGGRCVAPNRCACTYGFTGPQCERDYRTGPCFTVISNQMCQGQLSGIVCTKTLCCATVGRAWGHPCEMCPAQPHPCRRGFIPNIRTGACQDVDECQAIPGLCQGGNCINTVGSFECKCPAGHKLNEVSQKCEDIDECSTIPGICEGGECTNTVSSYFCKCPPGFYTSPDGTRCIDVRPGYCYTALTNGRCSNQLPQSITKMQCCCDAGRCWSPGVTVAPEMCPIRATEDFNKLCSVPMVIPGRPEYPPPPLGPIPPVLPVPPGFPPGPQIPVPRPPVEYLYPSREPPRVLPVNVTDYCQLVRYLCQNGRCIPTPGSYRCECNKGFQLDLRGECI
B3: protein mature (Micrurus tener tener, UniProt G9I930); disulfide bonds; chain NLNQFRLMIKCTNDRVWADFVDYGCYCVARDSNTPVDDLDRCCQAQKQCYDEAVKVHGCKPLVMFYSFECRYLASDLDCSGNNTKCRNFVCNCDRTATLCILTATYNRNNHKIDPSRCQ
B4: DMC1 (Homo sapiens, UniProt Q14565); chain MKEDQVVAEEPGFQDEEESLFQDIDLLQKHGINVADIKKLKSVGICTIKGIQMTTRRALCNVKGLSEAKVDKIKEAANKLIEPGFLTAFEYSEKRKMVFHITTGSQEFDKLLGGGIESMAITEAFGEFRTGKTQLSHTLCVTAQLPGAGGYPGGKIIFIDTENTFRPDRLRDIADRFNVDHDAVLDNVLYARAYTSEHQMELLDYVAAKFHEEAGIFKLLIIDSIMALFRVDFSGRGELAERQQKLAQMLSRLQKISEEYNVAVFVTNQMTADPGATMTFQADPKKPIGGHILAHASTTRISLRKGRGELRIAKIYDSPEMPENEATFAITAGGIGDAKE
B5: Fmnl3 555-954 M742A (Mus musculus, UniProt Q6ZPF4); chain GLSAIRIKKPIKTKFRLPVFNWTALKPNQINGTVFSELDDEKILEDLDLDRFEELFKTKAQGPALDLICSKNKTAQKAASKVTLLEANRAKNLAITLRKAGRSAEEICRAIHTFDLQTLPVDFVECLMRFLPTEAEVKLLRQYERERQPLEELAAEDRFMLLFSKVERLTQRMAGMAFLGNFQDNLQALTPQLNAIIAASASVKSSQKLKQMLEIILALGNYMNSSKRGAVYGFKLQSLDLLLDTKSTDRKMTLLHFIALTVKEKYPELANFWQELHFVEKAAAVSLENVLLDVKELGRGMELIRRECSIHDNSVLRNFLSTNEGKLDKLQRDAKTAEEAYNAVVRYFGESPKTTPPSVFFPVFVRFIRSYKEAEQENEARKKQEEVMREKQLAQEAKKL
B6: Fmnl3 555-954 K645A (Mus musculus, UniProt Q6ZPF4); chain GLSAIRIKKPIKTKFRLPVFNWTALKPNQINGTVFSELDDEKILEDLDLDRFEELFKTKAQGPALDLICSKNKTAQKAASKVTLLEANRAANLAITLRKAGRSAEEICRAIHTFDLQTLPVDFVECLMRFLPTEAEVKLLRQYERERQPLEELAAEDRFMLLFSKVERLTQRMAGMAFLGNFQDNLQMLTPQLNAIIAASASVKSSQKLKQMLEIILALGNYMNSSKRGAVYGFKLQSLDLLLDTKSTDRKMTLLHFIALTVKEKYPELANFWQELHFVEKAAAVSLENVLLDVKELGRGMELIRRECSIHDNSVLRNFLSTNEGKLDKLQRDAKTAEEAYNAVVRYFGESPKTTPPSVFFPVFVRFIRSYKEAEQENEARKKQEEVMREKQLAQEAKKL
B7: CTF4 471-927 (Saccharomyces cerevisiae, UniProt Q01454); chain TGKFRYMPFSPAGTPFGFTDRRYLTMNEVGYVSTVKNSEQYSITVSFFDVGRFREYHFEDLFGYDLCFLNEKGTLFGQSKTGQIQYRPHDSIHSNWTKIIPLQAGERITSVAATPVRVIVGTSLGYFRSFNQFGVPFAVEKTSPIVALTAQNYRVFSVHYSQFHGLSYSLSELGTSSKRYYKRECPLPMSLPNINSDMKKDANLDYYNFNPMGIKSLFFSSYGDPCIFGSDNTLLLLSKWRSPEESKWLPILDSNMEIWKMSGGKETTDIHVWPLALAYDTLNCILVKGKHIWPEFPLPLPSEMEIRMPVFVKSKLLEENKAILNKKNEIGADTEAEEGEEDKEIQIPVSMAAEEEYLRSKVLSELLTDTLENDGEMYGNENEVLAALNGAYDKALLRLFASACSDQNVEKALSLAHELKQDRALTAAVKISERAELPSLVKKINNIREARYEQQLK
B8: HNRNPH1 192-280 (Homo sapiens, UniProt P31943); chain RTHYDPPRKLMAMQRPGPYDRPGAGRGYNSIGRGAGFERMRRGAYGGGYGGYDDYNGYNDGYGFGSDRFGRDLNYCFSGMSDHRYGDGG
B9: KREPA2 1-587 (Trypanosoma brucei, UniProt A0A3L6L0V2); chain MYRRFFRSAAVKHLGTTSAQCLMRATKYPCGAMCRNASSCHPQTLGYQQRFQSTTDKKFHCSVCKKPFRLEMAAKLHLQQAHGGDGSVEAGPGPGVEASSVNVVSTPVPSPISPVERTFVDEEERRPRRMRPTPKPLHQPDRDIPAAAMEEMLGVWDKIGLNRLEGNFVHSTMVMKVFAAPPDVSEIPLYEHVAPEGENPFDSLDHMTTGTVDATYVGHDAFAEVDLVDPFVAAPDQTLNPFRAGKVRNPFTRISPTQREVVKPLQPPQPKEEPLKAPVTPFGQLPMFGQTREPSASFAAAAVSVQAAANPNEVSSPFAAAVSSSPFVGQVASPFAPAQDVAGSPFEASPCAASSPFVTAGGQETSPFAAPSTPASFGQGSLFPPMGTGAPGFTAITETEQRQQELEHGCPTCGKKFSTFEGAAMHSKSKHGIVLESKKVKDRLNRKGVPDLPAYVPSPVDLSSTSPFGTRSAIGASWAETELIPHAQCVSNITIVGRVLDVSQASENVSHVTVFVEGERSGEEETLTLCCFGEVSQKIRGTLKRNATIFASGTLRLHPVYEASNNKYYVSPVVHVSMPTGTLAVIT
B10: kaiA (Synechococcus elongatus, UniProt Q79PF6); chain MLSQIAICIWVESTAILQDCQRALSADRYQLQVCESGEMLLEYAQTHRDQIDCLILVAANPSFRAVVQQLCFEGVVVPAIVVGDRDSEDPDEPAKEQLYHSAELHLGIHQLEQLPYQVDAALAEFLRLAPVETMADHIMLMGANHDPELSSQQRDLAQRLQERLGYLGVYYKRDPDRFLRNLPAYESQKLHQAMQTSYREIVLSYFSPNSNLNQSIDNFVNMAFFADVPVTKVVEIHMELMDEFAKKLRVEGRSEDILLDYRLTLIDVIAHLCEMYRRSIPRET

BUD4 fragment (Saccharomyces cerevisiae)
beta-galactosidase activity (IQG1 295-823 (Saccharomyces cerevisiae, UniProt Q12280); two-hybrid; higher = stronger interaction): 401.16 ± 0.4 Miller units

B1 (Fmnl3 555-954)
molecule per partner (ACTA1; AUC): 1 FH2:actin

Kistrin-CD31 fusion
relative binding (ITGAV/ITGB3 D723A (Mus musculus); flow cytometry; B16F1; reference: wild type, higher = more binding): 2 fold

B2 (FBN1 147-489)
binding (FBLN5 42-448 (Homo sapiens, UniProt Q9UBX5); ELISA): binds

B3 (protein mature)
ΔH (protein, N-terminal pyroglutamate, disulfides (Micrurus tener tener, UniProt G9I929); ITC; 15 °C, NaCl 150 mM): -18.9 ± 1.3 kcal/mol

B4 (DMC1)
binding (T1, Psmc3ip/Mnd1 R64A/Y70A/Y71A (Mus musculus); pull-down): binds

B5 (Fmnl3 555-954 M742A)
fraction bound (ACTA1; AUC; KCl 50 mM): 0.98 fraction

Dync1i1 (Mus musculus, UniProt O88485)
DIC1/DHC ratio (Dync1h1 F580Y (Mus musculus, UniProt Q9JHU4); co-sedimentation; brain extract; with: taxol 20 µM, AMP-PNP 1 mM; reference: wild type, higher = more dynein bound): 1.4 fold

B6 (Fmnl3 555-954 K645A)
fraction bound (ACTA1; AUC; KCl 50 mM): 0.98 fraction

C3b/Bb C3bBb complex (Homo sapiens)
half-life (scn fragment (Staphylococcus aureus); native gel; 4 °C, with: SCIN 1 µM): > 20 h

B7 (CTF4 471-927)
binding (PSF1/PSF2/PSF3/SLD5 GINS, Psf1 1-164 (Saccharomyces cerevisiae); SEC): binds

Ac-SKEELERLFNVLNSQNNPTVPMRDRRLPYSFFQGP-NH2 (YAP TEAD-binding domain 15-49 (Trichoplax adhaerens); N-acetyl, C-amide)
IC50 (TEAD4 217-434 (Homo sapiens, UniProt Q15561); competition with ligand, AlphaScreen; peptide): 880 nM

rpoS del228-234 (Escherichia coli)
apparent Kd (rpoB/rpoC core RNA polymerase (Escherichia coli); pausing efficiency; adhE TEC): 410 nM

CD24/Siglec-10 blocking peptide, D-amino acids
Kd (Cd274 (Mus musculus, UniProt Q9EP73); MST): 22.9 µM

CTCF fragment (Homo sapiens) (sequence not shown)
ΔH (T2, STAG2/RAD21 STAG2 80-1060, RAD21 281-420 (Homo sapiens); ITC; pH 7.7, 25 °C, NaCl 150 mM): -13.2 kcal/mol

pspA (Escherichia coli, UniProt P0AFM6)
LacZ activity (mreB (Escherichia coli, UniProt P0A9X4); bacterial two-hybrid; 30 °C; higher = stronger interaction): 559 ± 183 MU

Importin-β/IBB-mEGFP IBB (Saccharomyces cerevisiae)
partition coefficient (NSP1 fragment (Saccharomyces cerevisiae); ellipsometry; apparent, two-component fit): 6700

B8 (HNRNPH1 192-280)
binding (DHX9 1151-1270 (Homo sapiens, UniProt Q08211); trapping in hydrogel, hydrogel binding; pH 7.5, 4 °C, NaCl 200 mM): binds

B9 (KREPA2 1-587)
increase in ligation efficiency (KREL1 51-469 (Trypanosoma brucei); nicked dsRNA ligation; reference: without molecule, higher = more ligation): 30%

B10 (kaiA)
rate constant k1 (kaiC 1-519 R385A (Synechococcus elongatus, UniProt Q79PF4); priming phosphorylation, SDS-PAGE; 0.2 mg/mL, 30 °C, with: KaiA 0.04 mg/mL; higher = faster): 0.2 h⁻¹

Maackia amurensis agglutinin (Maackia amurensis)
relative binding (KLK3 (Homo sapiens, UniProt P07288); peptide or protein array; reference: SNA bound to PSA, higher = more MAA binding): 7.6 ± 0.1%

For quick reference, copied from above:
BUD4 fragment (Saccharomyces cerevisiae)
beta-galactosidase activity (IQG1 295-823 (Saccharomyces cerevisiae, UniProt Q12280); two-hybrid; higher = stronger interaction): 401.16 ± 0.4 Miller units

B1 (Fmnl3 555-954)
molecule per partner (ACTA1; AUC): 1 FH2:actin
